Experimental data gathered from unrelated publications.
Each line is one published result; not all experiments were run side by side. “And” joins repeats or separate records; there may be more than shown. ± marks the error that the study gave.
Slc6a2: Transporter (Slc6a2, Rattus norvegicus, UniProt Q63380)
UniProt P35372, sequence (whole entry, looked up): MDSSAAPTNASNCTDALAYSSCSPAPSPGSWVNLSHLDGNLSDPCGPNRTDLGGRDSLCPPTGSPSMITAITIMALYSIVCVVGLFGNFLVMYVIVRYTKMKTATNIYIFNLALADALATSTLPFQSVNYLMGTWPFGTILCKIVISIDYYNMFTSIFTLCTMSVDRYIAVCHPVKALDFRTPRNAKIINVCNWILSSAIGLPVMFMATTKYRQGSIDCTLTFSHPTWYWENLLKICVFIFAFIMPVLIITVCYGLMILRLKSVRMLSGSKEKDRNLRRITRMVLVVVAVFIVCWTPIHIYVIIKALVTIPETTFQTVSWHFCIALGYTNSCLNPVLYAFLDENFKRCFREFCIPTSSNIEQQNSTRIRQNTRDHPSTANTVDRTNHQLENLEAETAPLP
UniProt P63096, sequence (whole entry, looked up): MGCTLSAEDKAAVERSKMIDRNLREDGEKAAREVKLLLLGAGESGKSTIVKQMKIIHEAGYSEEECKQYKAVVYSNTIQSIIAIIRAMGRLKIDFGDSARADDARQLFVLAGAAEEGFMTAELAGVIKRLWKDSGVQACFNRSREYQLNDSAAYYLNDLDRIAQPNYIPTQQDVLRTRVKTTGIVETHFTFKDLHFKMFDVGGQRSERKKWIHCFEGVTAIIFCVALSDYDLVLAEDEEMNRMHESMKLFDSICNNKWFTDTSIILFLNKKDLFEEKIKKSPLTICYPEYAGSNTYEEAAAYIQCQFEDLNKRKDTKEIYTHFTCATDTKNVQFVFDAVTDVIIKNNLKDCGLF
UniProt P07550, sequence (whole entry, looked up): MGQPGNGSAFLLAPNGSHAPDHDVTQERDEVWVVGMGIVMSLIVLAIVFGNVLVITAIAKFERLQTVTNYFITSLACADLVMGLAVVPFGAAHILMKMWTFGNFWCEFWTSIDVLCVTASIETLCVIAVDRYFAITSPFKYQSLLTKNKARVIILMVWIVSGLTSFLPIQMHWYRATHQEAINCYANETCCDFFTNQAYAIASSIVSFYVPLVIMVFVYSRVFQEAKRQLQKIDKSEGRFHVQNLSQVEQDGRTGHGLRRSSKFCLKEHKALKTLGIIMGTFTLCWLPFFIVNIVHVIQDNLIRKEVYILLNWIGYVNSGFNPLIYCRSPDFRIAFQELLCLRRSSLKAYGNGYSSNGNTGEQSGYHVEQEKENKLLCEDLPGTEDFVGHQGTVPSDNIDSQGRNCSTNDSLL
UniProt Q2T7N4, sequence (whole entry, looked up): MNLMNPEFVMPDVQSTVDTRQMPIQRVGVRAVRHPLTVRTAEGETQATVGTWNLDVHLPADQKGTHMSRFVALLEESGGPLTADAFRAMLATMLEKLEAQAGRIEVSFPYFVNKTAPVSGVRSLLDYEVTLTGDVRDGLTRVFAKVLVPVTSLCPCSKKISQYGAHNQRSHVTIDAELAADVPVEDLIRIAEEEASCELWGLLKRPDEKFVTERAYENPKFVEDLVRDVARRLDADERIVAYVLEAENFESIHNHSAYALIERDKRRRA
UniProt P9WI57, sequence (whole entry, looked up): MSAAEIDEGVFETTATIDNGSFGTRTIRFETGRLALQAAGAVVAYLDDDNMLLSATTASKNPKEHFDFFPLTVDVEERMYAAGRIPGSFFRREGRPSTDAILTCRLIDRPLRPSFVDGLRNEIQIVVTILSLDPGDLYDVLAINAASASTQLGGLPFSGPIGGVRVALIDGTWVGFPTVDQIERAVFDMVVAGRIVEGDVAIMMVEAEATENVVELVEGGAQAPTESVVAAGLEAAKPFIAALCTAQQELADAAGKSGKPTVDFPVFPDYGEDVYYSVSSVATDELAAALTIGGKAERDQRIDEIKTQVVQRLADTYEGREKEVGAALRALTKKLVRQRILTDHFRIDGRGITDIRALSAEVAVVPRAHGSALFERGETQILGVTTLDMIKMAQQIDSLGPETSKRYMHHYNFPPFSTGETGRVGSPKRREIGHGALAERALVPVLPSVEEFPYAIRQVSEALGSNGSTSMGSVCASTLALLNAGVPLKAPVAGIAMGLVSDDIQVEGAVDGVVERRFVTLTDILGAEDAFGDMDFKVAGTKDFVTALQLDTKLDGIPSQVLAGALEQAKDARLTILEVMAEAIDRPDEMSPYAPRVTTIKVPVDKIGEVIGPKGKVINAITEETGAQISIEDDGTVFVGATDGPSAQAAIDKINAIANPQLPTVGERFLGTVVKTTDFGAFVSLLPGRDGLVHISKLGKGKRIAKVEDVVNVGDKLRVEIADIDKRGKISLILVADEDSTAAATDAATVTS
UniProt P41595, sequence (whole entry, looked up): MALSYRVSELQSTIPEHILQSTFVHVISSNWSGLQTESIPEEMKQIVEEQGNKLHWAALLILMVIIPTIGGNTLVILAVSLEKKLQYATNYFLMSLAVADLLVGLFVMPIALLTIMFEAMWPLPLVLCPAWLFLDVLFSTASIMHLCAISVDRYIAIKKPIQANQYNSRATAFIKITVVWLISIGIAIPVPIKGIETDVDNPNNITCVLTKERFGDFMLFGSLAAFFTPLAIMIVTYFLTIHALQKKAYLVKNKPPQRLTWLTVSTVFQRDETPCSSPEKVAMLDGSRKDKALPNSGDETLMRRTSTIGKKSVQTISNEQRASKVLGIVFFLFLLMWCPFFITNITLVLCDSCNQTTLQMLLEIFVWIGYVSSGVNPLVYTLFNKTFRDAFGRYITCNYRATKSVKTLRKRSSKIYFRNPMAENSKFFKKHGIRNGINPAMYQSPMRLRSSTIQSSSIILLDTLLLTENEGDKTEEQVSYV
UniProt O75751, sequence (whole entry, looked up): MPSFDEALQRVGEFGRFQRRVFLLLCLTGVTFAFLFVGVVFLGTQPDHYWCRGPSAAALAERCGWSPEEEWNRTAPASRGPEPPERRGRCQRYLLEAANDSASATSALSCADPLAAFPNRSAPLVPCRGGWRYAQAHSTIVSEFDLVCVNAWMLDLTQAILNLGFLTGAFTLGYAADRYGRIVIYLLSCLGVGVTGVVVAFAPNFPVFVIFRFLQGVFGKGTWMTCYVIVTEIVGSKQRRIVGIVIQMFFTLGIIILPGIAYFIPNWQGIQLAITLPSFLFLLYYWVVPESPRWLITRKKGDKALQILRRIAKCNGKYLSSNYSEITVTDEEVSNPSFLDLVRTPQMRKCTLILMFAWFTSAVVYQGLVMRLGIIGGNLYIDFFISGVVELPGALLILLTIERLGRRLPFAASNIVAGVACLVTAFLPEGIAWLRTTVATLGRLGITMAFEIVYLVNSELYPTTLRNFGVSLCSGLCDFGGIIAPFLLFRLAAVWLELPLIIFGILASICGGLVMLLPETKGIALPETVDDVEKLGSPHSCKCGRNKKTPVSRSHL
UniProt Q9RBY6, sequence (whole entry, looked up): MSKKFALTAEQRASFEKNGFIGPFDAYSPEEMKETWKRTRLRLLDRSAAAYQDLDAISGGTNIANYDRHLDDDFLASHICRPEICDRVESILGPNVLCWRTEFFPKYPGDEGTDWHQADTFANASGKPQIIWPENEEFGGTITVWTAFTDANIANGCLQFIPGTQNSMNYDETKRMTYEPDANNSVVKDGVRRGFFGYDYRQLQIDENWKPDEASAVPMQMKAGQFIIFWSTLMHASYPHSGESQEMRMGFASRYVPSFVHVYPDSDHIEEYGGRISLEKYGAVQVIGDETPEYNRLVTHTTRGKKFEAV
UniProt P08684, sequence (whole entry, looked up): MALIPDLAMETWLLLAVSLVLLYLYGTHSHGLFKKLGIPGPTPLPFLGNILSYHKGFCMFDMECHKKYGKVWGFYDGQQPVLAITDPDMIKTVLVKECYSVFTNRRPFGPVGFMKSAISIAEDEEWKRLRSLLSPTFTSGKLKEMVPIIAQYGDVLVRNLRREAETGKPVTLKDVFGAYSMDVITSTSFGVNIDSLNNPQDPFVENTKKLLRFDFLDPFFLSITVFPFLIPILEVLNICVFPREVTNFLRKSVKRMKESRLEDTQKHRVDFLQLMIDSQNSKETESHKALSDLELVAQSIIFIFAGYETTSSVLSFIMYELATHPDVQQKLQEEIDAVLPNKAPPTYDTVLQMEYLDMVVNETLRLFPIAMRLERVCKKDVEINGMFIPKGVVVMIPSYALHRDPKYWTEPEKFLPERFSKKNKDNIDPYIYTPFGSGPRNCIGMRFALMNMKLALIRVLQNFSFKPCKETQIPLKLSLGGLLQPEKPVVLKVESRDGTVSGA

Compound | target | assay | system | conditions | quantity | value
O=C(NC1(C(=O)O)CCCC1)c1ccc(-c2ccc(NC(=O)c3nc(-c4ccccc4)oc3C(F)(F)F)cc2)cc1 | Polyribonucleotide nucleotidyltransferase (pnp, Mycobacterium tuberculosis, UniProt P9WI57) | – | – | – | Ki | 790 ± 46 nM
Nc1nc2c(ncn2[C@@H]2O[C@H](COP(=O)(O)OP(O)(O)=S)[C@@H](O)[C@H]2O)c(=O)[nH]1 | OPRM1/GNAI1 (Homo sapiens, UniProt P35372+P63096) | MOR-Gi coupling | HEK293F | ratio 1:3 | IC50 | 59.8 nM and 48.6 nM and 44.8 nM
CCCCCCCC[C@H]1O[C@H]1C/C=C/C=C/[C@H](O)CC(=O)NC1=C[C@](C)(CC)OC1=O | Na(+)-translocating NADH-quinone reductase subunit B, complex with NqrE D168N (nqrB, Vibrio cholerae serotype O1, UniProt Q9KPS2) | enzyme activity, inhibitor | – | NqrE-D168N mutant | IC50 | < 10 nM
COc1cc(C[C@@H](C)N)c(OC)cc1I | 5-hydroxytryptamine receptor 2B (HTR2B, Homo sapiens, UniProt P41595) | agonist | – | – | EC50 | 7.43 ± 2.05 nM
COC(=O)C(=O)[C@H](C[C@@H]1CCNC1=O)NC(=O)[C@H](CCCCN)NC(=O)[C@H](Cc1ccccc1)NC(=O)OCc1ccccc1 | hip1, N-terminally truncated (Mycobacterium tuberculosis, UniProt P9WHR3) | inhibitor | – | – | Ki | 0.113 nM and 0.101 nM and 0.136 nM
[N-]=[N+]=[N-] | L-threonyl-[L-threonyl-carrier protein] 4-chlorinase (syrB2, Pseudomonas syringae pv. syringae, UniProt Q9RBY6) | binding, UV-vis titration | Pseudomonas syringae | anaerobic, together with: Fe(II) and alpha-ketoglutarate | Kd | 120 ± 5 µM
C=C1C(=O)O[C@H]2[C@H]1CC/C(C)=C/CC[C@@]1(C)O[C@@H]21 | GTP cyclohydrolase FolE2 (folE2, Burkholderia thailandensis, UniProt Q2T7N4) | – | – | – | Ki | 21900 ± 4000 nM
O=C(C1CCCCC1)N1CCN(S(=O)(=O)c2cccc3cnccc23)CC1 | Cytochrome P450 3A4 (CYP3A4, Homo sapiens, UniProt P08684) | enzyme activity, inhibitor | human liver microsomes | together with: testosterone | IC50 | < 1000 nM
C[C@]12CC[C@@H](O)C[C@@H]1CC[C@@H]1[C@@H]2CC[C@]2(C)C(=O)CC[C@@H]12 | Beta-2 adrenergic receptor (ADRB2, Homo sapiens, UniProt P07550) | inhibitor | cells | – | IC50 | 27400 nM and > 20000 nM
CNC(C)C(=O)c1ccc2c(c1)OCO2 (stereo not shown) | Slc6a2 | – | – | rat | EC50 | 270 ± 70 nM
Brc1ccc2c(c1)C(c1ccccn1)=NCc1c(-c3cnco3)ncn1-2 | GABA-A receptor benzodiazepine site, rat | radioligand binding | brain homogenate | together with: [3H]flunitrazepam | Ki | 150 ± 31.8 nM
CNC(C)Cc1ccc2c(c1)OCO2 (stereo not shown) | Solute carrier family 22 member 3 (SLC22A3, Homo sapiens, UniProt O75751) | – | – | – | IC50 | 696000 ± 114000 nM
CCCC(NC)C(=O)c1ccc2c(c1)OCO2 (racemic) | Slc6a2 | norepinephrine uptake, inhibitor | rat brain synaptosomes | together with: [3H]norepinephrine 5 nM | IC50 | 1070 ± 110 nM

Some of these lines once more:
Compound | target | assay | system | conditions | quantity | value
Brc1ccc2c(c1)C(c1ccccn1)=NCc1c(-c3cnco3)ncn1-2 | GABA-A receptor benzodiazepine site, rat | radioligand binding | brain homogenate | together with: [3H]flunitrazepam | Ki | 150 ± 31.8 nM
